# Measured values pooled from the literature.
# Compare with care: the assays were run in different laboratories. Values joined by “and” are separate records of one study, mostly repeats; a detail may differ. ± marks the error that the study gave.
# Sequence of UniProt Q9UNQ0 (whole entry, looked up): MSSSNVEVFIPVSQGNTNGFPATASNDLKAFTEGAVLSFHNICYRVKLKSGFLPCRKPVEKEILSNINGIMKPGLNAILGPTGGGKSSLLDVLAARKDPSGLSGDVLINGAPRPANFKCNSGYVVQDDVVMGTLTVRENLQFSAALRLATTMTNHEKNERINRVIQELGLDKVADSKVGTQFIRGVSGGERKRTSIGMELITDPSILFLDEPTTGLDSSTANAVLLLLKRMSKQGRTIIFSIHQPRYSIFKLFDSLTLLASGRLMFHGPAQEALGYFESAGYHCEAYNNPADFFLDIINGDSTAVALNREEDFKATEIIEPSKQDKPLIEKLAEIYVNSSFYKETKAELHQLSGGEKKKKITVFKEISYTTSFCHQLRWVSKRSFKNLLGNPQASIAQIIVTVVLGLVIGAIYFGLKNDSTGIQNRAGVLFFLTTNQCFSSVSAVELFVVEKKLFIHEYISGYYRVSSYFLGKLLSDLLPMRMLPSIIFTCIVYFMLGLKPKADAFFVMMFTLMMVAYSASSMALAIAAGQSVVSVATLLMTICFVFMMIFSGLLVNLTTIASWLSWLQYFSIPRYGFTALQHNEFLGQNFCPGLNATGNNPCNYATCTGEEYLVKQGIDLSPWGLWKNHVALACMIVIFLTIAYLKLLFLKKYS
SMILES,tested on,assay,system,setting,scale,measurement,result
CC[C@H](C)[C@H](NC(=O)[C@H](CCCCN)NC(=O)CNC(=O)[C@H](CC(C)C)NC(=O)[C@H](Cc1ccccc1)NC(=O)[C@H](CCCCN)NC(=O)[C@H](CO)NC(=O)[C@H](Cc1ccccc1)NC(=O)[C@H](Cc1c[nH]c2ccccc12)NC(=O)[C@H](CCC(N)=O)NC(=O)[C@@H](NC(=O)[C@H](Cc1ccccc1)NC(=O)CCCCCNC(=O)CN1CCN(CC(=O)O)CCN(CC(=O)O)CCN(CC(=O)O)CC1)C(C)C)C(=O)N[C@@H](CCC(=O)O)C(=O)N1CCC[C@H]1C(=O)N[C@@H](CC(=O)O)C(=O)N[C@H](C(=O)N[C@@H](CO)C(=O)N[C@@H](CCC(N)=O)C(=O)N[C@H](C(=O)N[C@@H](CCC(N)=O)C(=O)N[C@@H](CC(=O)O)C(=O)N1CCC[C@H]1C(=O)N[C@@H](CC(N)=O)C(=O)N[C@@H](CC(=O)O)C(=O)N[C@@H](CCC(N)=O)C(=O)N[C@@H](Cc1ccc(O)cc1)C(=O)N[C@@H](CCC(=O)O)C(=O)N1CCC[C@H]1C(=O)N[C@@H](Cc1ccccc1)C(=O)O)C(C)C)C(C)C [copper-64 labelled],,,"C57BL/6 male mouse, tumour-naive, brain",2 h,,tissue uptake,0.32 ± 0.02 %ID/g
CCn1ccc(-c2cc([C@@H](C)NC(=O)c3cc(OC[C@@H]4CCN4C)ccc3C)c3ccccc3n2)n1,African green monkey cells,,,250 µM,,viability,0.298%
CN1Cc2cc(Cl)ccc2-n2c(nnc2C2CCN(c3cccc([18F])n3)CC2)C1,,,"C57BL/6 mouse male, lung","intravenous, 3.7 MBq, 1 min",,tissue uptake,11.8 ± 4.88 %ID/g
CSCC[C@H](N)C(=O)N[C@@H](C)C(=O)N[C@@H](Cc1c[nH]c2ccccc12)C(=O)N[C@@H](Cc1c[nH]cn1)C(=O)N[C@@H](CC(=O)O)C(=O)N[C@@H](CC(=O)O)C(=O)N[C@@H](CCC(=O)O)C(=O)N[C@@H](CCC(=O)O)C(=O)N[C@@H](Cc1ccccc1)C(=O)N[C@@H](C)C(=O)N[C@@H](CCCNC(=N)N)C(=O)N[C@@H](CCCNC(=N)N)C(=O)N[C@@H](CCCNC(=N)N)C(=O)N[C@@H](CCCNC(=N)N)C(=O)NCCCCCC(=O)NCCCCC(NC(=O)CCCCCNC(=O)[C@H](CCCNC(=N)N)NC(=O)[C@H](CCCNC(=N)N)NC(=O)[C@H](CCCNC(=N)N)NC(=O)[C@H](CCCNC(=N)N)NC(=O)[C@H](C)NC(=O)[C@H](Cc1ccccc1)NC(=O)[C@H](CCC(=O)O)NC(=O)[C@H](CCC(=O)O)NC(=O)[C@H](CC(=O)O)NC(=O)[C@H](CC(=O)O)NC(=O)[C@H](Cc1c[nH]cn1)NC(=O)[C@H](Cc1c[nH]c2ccccc12)NC(=O)[C@H](C)NC(=O)[C@@H](N)CCSC)C(=O)NCCCCC(NC(=O)C(CCCCNC(=O)CCCCCNC(=O)[C@H](CCCNC(=N)N)NC(=O)[C@H](CCCNC(=N)N)NC(=O)[C@H](CCCNC(=N)N)NC(=O)[C@H](CCCNC(=N)N)NC(=O)[C@H](C)NC(=O)[C@H](Cc1ccccc1)NC(=O)[C@H](CCC(=O)O)NC(=O)[C@H](CCC(=O)O)NC(=O)[C@H](CC(=O)O)NC(=O)[C@H](CC(=O)O)NC(=O)[C@H](Cc1c[nH]cn1)NC(=O)[C@H](Cc1c[nH]c2ccccc12)NC(=O)[C@H](C)NC(=O)[C@@H](N)CCSC)NC(=O)CCCCCNC(=O)[C@H](CCCNC(=N)N)NC(=O)[C@H](CCCNC(=N)N)NC(=O)[C@H](CCCNC(=N)N)NC(=O)[C@H](CCCNC(=N)N)NC(=O)[C@H](C)NC(=O)[C@H](Cc1ccccc1)NC(=O)[C@H](CCC(=O)O)NC(=O)[C@H](CCC(=O)O)NC(=O)[C@H](CC(=O)O)NC(=O)[C@H](CC(=O)O)NC(=O)[C@H](Cc1c[nH]cn1)NC(=O)[C@H](Cc1c[nH]c2ccccc12)NC(=O)[C@H](C)NC(=O)[C@@H](N)CCSC)C(N)=O (stereo partly drawn),,,"mouse C57BL/6 female, spine","6 h, radioiodinated peptide",baseline: total radioactivity,tissue distribution,5.61% and 6.34%
CC(=O)N[C@H](C(=O)N[C@@H](CCCC(=O)OC(C)(C)C)C(=O)N[C@@H](CCC1CCCCC1)C(=O)N[C@@H](CC(=O)O)C(=O)COC(=O)c1c(C)cccc1C)C(C)(C)C,,,"C57BL/6N mouse female, liver","intraperitoneal, dose not given, 24 h",,tissue concentration,4.02 mM and 3.63 mM and 11.7 mM
CC(=O)NCCCC[C@@H]1NC(=O)[C@H](Cc2c[nH]c3c(C)cccc23)NC(=O)[C@H]([C@@H](C)O)NC(=O)[C@H](CC(N)=O)NC(=O)[C@@H](NC(C)=O)C(C)(C)SSC(C)(C)[C@@H](C(=O)N[C@@H](Cc2ccc(OCCN)cc2)C(=O)N[C@@H](Cc2ccc3ccccc3c2)C(=O)NC2(C(=O)N[C@@H](CCC(=O)O)C(=O)N[C@@H](CC(N)=O)C(=O)N[C@@H](Cc3cccnc3)C(=O)N(C)CC(N)=O)CCOCC2)NC1=O,"ABCG2 (Homo sapiens, UniProt Q9UNQ0)","transport, inhibitor",LLC-PK1 expressing ABCG2,"0.0558 µM, 90 min, added: [3H]prazosin",,efflux ratio,9.34
CC[C@H](C)[C@H](NC(=O)[C@H](CCCNC(=N)N)NC(=O)[C@H](CCCCN)NC(=O)[C@H](Cc1ccc(O)cc1)NC(=O)[C@H](CC(=O)O)NC(=O)[C@H](C)NC(=O)CNC(=O)CCOCCOCCOCCNC(=O)CN1CCN(CC(=O)O)CCN(CC(=O)O)CCN(CC(=O)O)CC1)C(=O)N[C@H](C(=O)N[C@@H](CC(C)C)C(=O)N[C@@H](CCCCN)C(=O)N[C@H](C(=O)N[C@@H](CC(N)=O)C(N)=O)C(C)C)[C@@H](C)O [copper-64 labelled],,ex vivo gamma counting,"male C57BL/6J mouse, B16-F10 tumour, B16-F10 tumour","intravenous, 1.85 MBq, 40 min",,tissue uptake,4.08 ± 1.32 %ID/g
CSCC[C@H](NC(=O)CNC(=O)[C@H](CCCCN)NC(=O)[C@H](CC(C)C)NC(=O)[C@@H]1CCCN1C(=O)[C@H](CO)NC(=O)[C@H](Cc1c[nH]cn1)NC(=O)[C@H](Cc1c[nH]c2ccccc12)NC(=O)[C@H](CCCNC(=N)N)NC(=O)[C@H](CC(C)C)NC(=O)[C@H](CCCNC(=N)N)NC(=O)[C@H](Cc1c[nH]c2ccccc12)NC(=O)[C@H](CS)NC(=O)CCCCCNC(=O)CN1CCN(CC(=O)O)CCN(CC(=O)O)CCN(CC(=O)O)CC1)C(=O)O [copper-64 labelled],,,"BALB/c nude mouse, Huh-7 tumour, lymph node","intravenous, 2 h, ex vivo biodistribution",,tissue uptake,2.02 %ID/g
CSCC[C@H](N)C(=O)N[C@@H](C)C(=O)N[C@@H](CCCNC(=N)N)C(=O)N[C@@H](CCCNC(=N)N)C(=O)N[C@@H](CC(=O)O)C(=O)N[C@@H](CCCCN)C(=O)N[C@H](C(=O)N[C@@H](CC(=O)O)C(=O)N[C@@H](Cc1ccccc1)C(=O)N[C@@H](C)C(=O)N[C@@H](CCCNC(=N)N)C(=O)N[C@@H](CCCNC(=N)N)C(=O)N[C@@H](CCCNC(=N)N)C(=O)N[C@@H](CCCNC(=N)N)C(=O)NCCCCCC(=O)NCCCCC(NC(=O)CCCCCNC(=O)[C@H](CCCNC(=N)N)NC(=O)[C@H](CCCNC(=N)N)NC(=O)[C@H](CCCNC(=N)N)NC(=O)[C@H](CCCNC(=N)N)NC(=O)[C@H](C)NC(=O)[C@H](Cc1ccccc1)NC(=O)[C@H](CC(=O)O)NC(=O)[C@@H](NC(=O)[C@H](CCCCN)NC(=O)[C@H](CC(=O)O)NC(=O)[C@H](CCCNC(=N)N)NC(=O)[C@H](CCCNC(=N)N)NC(=O)[C@H](C)NC(=O)[C@@H](N)CCSC)[C@@H](C)O)C(=O)NCCCCC(NC(=O)C(CCCCNC(=O)CCCCCNC(=O)[C@H](CCCNC(=N)N)NC(=O)[C@H](CCCNC(=N)N)NC(=O)[C@H](CCCNC(=N)N)NC(=O)[C@H](CCCNC(=N)N)NC(=O)[C@H](C)NC(=O)[C@H](Cc1ccccc1)NC(=O)[C@H](CC(=O)O)NC(=O)[C@@H](NC(=O)[C@H](CCCCN)NC(=O)[C@H](CC(=O)O)NC(=O)[C@H](CCCNC(=N)N)NC(=O)[C@H](CCCNC(=N)N)NC(=O)[C@H](C)NC(=O)[C@@H](N)CCSC)[C@@H](C)O)NC(=O)CCCCCNC(=O)[C@H](CCCNC(=N)N)NC(=O)[C@H](CCCNC(=N)N)NC(=O)[C@H](CCCNC(=N)N)NC(=O)[C@H](CCCNC(=N)N)NC(=O)[C@H](C)NC(=O)[C@H](Cc1ccccc1)NC(=O)[C@H](CC(=O)O)NC(=O)[C@@H](NC(=O)[C@H](CCCCN)NC(=O)[C@H](CC(=O)O)NC(=O)[C@H](CCCNC(=N)N)NC(=O)[C@H](CCCNC(=N)N)NC(=O)[C@H](C)NC(=O)[C@@H](N)CCSC)[C@@H](C)O)C(N)=O)[C@@H](C)O (stereo partly drawn),,,"C57BL/6 mouse female, skull","dose not given, 3 h",baseline: total,tissue distribution,19.8% and 12.5% and 13.3%
Cc1ccc(N2CC3CCC(C2)N3C)cc1C(=O)N[C@H](C)c1cc(-c2cnn(C)c2)nc2ccccc12,African green monkey cells,,,250 µM,,viability,0.766%
O=C1NC2(CC2)COc2ncc(F)cc2[C@H]2COCCN2c2ccn3ncc1c3n2,,,"Sprague-Dawley rat, male, spleen","oral, 2.5 mg/kg/day, 4 weeks dosing, end of recovery",,organ-to-body weight ratio,0.206 ± 0.028%
CC[C@H](C)[C@H](NC(=O)[C@H](CCCNC(=N)N)NC(=O)[C@H](CCCCN)NC(=O)[C@H](Cc1ccc(O)cc1)NC(=O)[C@H](CC(=O)O)NC(=O)[C@H](C)NC(=O)CNC(=O)CCOCCOCCOCCNC(=O)CN1CCN(CC(=O)O)CCN(CC(=O)O)CCN(CC(=O)O)CC1)C(=O)N[C@H](C(=O)N[C@H](C(=O)N[C@@H](CCCCN)C(=O)N[C@H](C(=O)N[C@@H](CC(N)=O)C(N)=O)C(C)C)C(C)C)[C@@H](C)O [copper-64 labelled],,ex vivo gamma counting,"male C57BL/6J mouse, B16-F10 tumour, intestinal lymph node","intravenous, 1.85 MBq, 20 min",,tissue uptake,0.972 ± 0.434 %ID/g

# Excerpt of the above:
SMILES,tested on,assay,system,setting,scale,measurement,result
CSCC[C@H](NC(=O)CNC(=O)[C@H](CCCCN)NC(=O)[C@H](CC(C)C)NC(=O)[C@@H]1CCCN1C(=O)[C@H](CO)NC(=O)[C@H](Cc1c[nH]cn1)NC(=O)[C@H](Cc1c[nH]c2ccccc12)NC(=O)[C@H](CCCNC(=N)N)NC(=O)[C@H](CC(C)C)NC(=O)[C@H](CCCNC(=N)N)NC(=O)[C@H](Cc1c[nH]c2ccccc12)NC(=O)[C@H](CS)NC(=O)CCCCCNC(=O)CN1CCN(CC(=O)O)CCN(CC(=O)O)CCN(CC(=O)O)CC1)C(=O)O [copper-64 labelled],,,"BALB/c nude mouse, Huh-7 tumour, lymph node","intravenous, 2 h, ex vivo biodistribution",,tissue uptake,2.02 %ID/g
